Assay results of several laboratories.
Protocols differ between the studies behind these lines. Numbers after ± are the reported error. In brackets after ≈: the same amount, converted by molar mass.
Organism: Enterococcus faecium

SMILES = CN[C@H](CC(C)C)C(=O)N[C@H]1C(=O)N[C@@H](CC(N)=O)C(=O)N[C@H]2C(=O)N[C@H]3C(=O)N[C@H](C(=O)N[C@H](C(=O)O)c4cc(O)cc(O)c4-c4cc3ccc4O)[C@H](O)c3ccc(c(Cl)c3)Oc3cc2cc(c3O[C@@H]2O[C@H](CO)[C@@H](O)[C@H](O)[C@H]2O[C@H]2C[C@](C)(N)[C@H](O)[C@H](C)O2)Oc2ccc(cc2Cl)[C@H]1O; test = broth microdilution; test system = VanA vancomycin-resistant clinical isolates; endpoint = MIC range; result = ≥ 32 µg/mL
SMILES = CN[C@H](CC(C)C)C(=O)N[C@H]1C(=O)N[C@@H](CC(N)=O)C(=O)N[C@H]2C(=O)NC3C(=O)N[C@H](C(=O)N[C@H](C(=O)NCCC[N+](C)(C)C)c4cc(O)cc(O)c4-c4cc3ccc4O)[C@H](O)c3ccc(c(Cl)c3)Oc3cc2cc(c3OC2OC(CO)C(O)[C@H](O)[C@@H]2O[C@H]2CC(C)(NCc3ccc(-c4ccc(Cl)cc4)cc3)[C@H](O)[C@H](C)O2)Oc2ccc(cc2Cl)[C@H]1O (some centres unmarked); test system = VanA VRE ATCC BAA-2317; conditions = added: LTA 100 µg/mL; endpoint = MIC; result = 5 µg/mL
SMILES = C[C@@H](NC(=O)[C@@H](C)NC(=O)[C@H](CCCCNC(=O)c1ccc(S(=O)(=O)F)cc1)NC(=O)c1ccc(S(=O)(=O)F)cc1)C(=O)O; test = cell growth; conditions = 24 h, added: vancomycin 8 µg/mL; endpoint = IC50; result = 18.7 µM
SMILES = CO[C@H]1[C@H](O[C@H]([C@H]2O[C@@H](n3ccc(=O)[nH]c3=O)[C@H](O)[C@@H]2O)[C@H](NCCCNC(=O)[C@@H](NC(=O)[C@@H](NC(=O)N[C@H](C(=O)O)C(C)C)[C@@H]2CCN=C(N)N2)[C@@H](OC(=O)CCCCCCCCCCCCN(O)C(=N)N)C(C)C)C(=O)O)O[C@H](CN)[C@H]1O; test = resazurin microplate; test system = NR-32065; endpoint = MIC90; result = 15.4 ± 0.335 µg/mL (≈ 12.7 µM)
SMILES = CC[C@H](C)[C@H](NC(=O)[C@H](C)NC(=O)[C@H](CCCCN)NC(=O)[C@H](CC(C)C)NC(=O)[C@H](C)NC(=O)[C@@H](NC(=O)[C@H](Cc1c[nH]cn1)NC(=O)[C@H](CC(C)C)NC(=O)[C@@H](NC(=O)[C@@H](NC(=O)[C@H](CCCCN)NC(=O)[C@H](C)NC(=O)[C@H](C)NC(=O)[C@H](CO)NC(=O)[C@H](CCCCN)NC(=O)[C@H](Cc1ccccc1)NC(=O)[C@@H](NC(=O)[C@H](CCCCN)NC(=O)[C@H](CC(C)C)NC(=O)[C@H](Cc1ccccc1)NC(=O)[C@H](CO)NC(=O)[C@H](CCCCN)NC(=O)[C@H](Cc1c[nH]c2ccccc12)NC(=O)[C@H](CCCCN)NC(C)=O)[C@@H](C)O)[C@@H](C)O)C(C)C)[C@@H](C)O)C(=O)N[C@@H](CO)C(=O)N[C@@H](CO)C(N)=O; test system = Enterococcus faecium; conditions = 40 strains; endpoint = MIC geometric mean; result = 11.3 µg/mL (≈ 3.86 µM)
SMILES = CCCCCCCCCC(=O)N[C@@H](Cc1c[nH]c2ccccc12)C(=O)N[C@H](CC(N)=O)C(=O)N[C@@H](CC(=O)O)C(=O)N[C@@H]1C(=O)NCC(=O)N[C@@H](CCCN)C(=O)N[C@@H](CC(=O)O)C(=O)N[C@H](C)C(=O)N[C@@H](CC(=O)O)C(=O)NCC(=O)N[C@H](CO)C(=O)N[C@@H]([C@H](C)CC(=O)O)C(=O)N[C@@H](CC(=O)c2ccccc2N)C(=O)O[C@@H]1C; test system = resistant isolate; conditions = 16 h, added: Ca2+ 10 mM; endpoint = MIC; result = 2 µg/mL (≈ 1.23 µM)
SMILES = C[C@@H](NC(=O)[C@@H](C)NC(=O)[C@H](CCCCNC(=O)c1ccc(NC(=O)CCl)cc1)NC(=O)c1ccc(NC(=O)CCl)cc1)C(=O)O; test = cell growth; conditions = 24 h, added: vancomycin 8 µg/mL; endpoint = IC50; result = 48.1 µM
SMILES = Cn1c(=O)ccc2ccc(F)c(CCNC[C@H]3CN(c4cnc5c(n4)NC(=O)CO5)C(=O)O3)c21; endpoint = MIC90; result = 0.12 µg/mL (≈ 0.256 µM)

Some of these lines once more:
SMILES = CCCCCCCCCC(=O)N[C@@H](Cc1c[nH]c2ccccc12)C(=O)N[C@H](CC(N)=O)C(=O)N[C@@H](CC(=O)O)C(=O)N[C@@H]1C(=O)NCC(=O)N[C@@H](CCCN)C(=O)N[C@@H](CC(=O)O)C(=O)N[C@H](C)C(=O)N[C@@H](CC(=O)O)C(=O)NCC(=O)N[C@H](CO)C(=O)N[C@@H]([C@H](C)CC(=O)O)C(=O)N[C@@H](CC(=O)c2ccccc2N)C(=O)O[C@@H]1C; test system = resistant isolate; conditions = 16 h, added: Ca2+ 10 mM; endpoint = MIC; result = 2 µg/mL (≈ 1.23 µM)
